Measurements from different studies.
Each line is one published result; not all experiments were run side by side. ± marks the error that the study gave. ≈ marks a conversion by molar mass, not a printed value.

CC1(C)Cc2sc(NC(=O)Cc3ccc(S(N)(=O)=O)cc3)c(C#N)c2CN1CC1CCCCC1 — inhibition (Zika virus; viral replication; A549, Dakar, Nluc reporter; up to 50 µM): no inhibition
C=C(C)[C@@H]1CC[C@]2(C(N)=O)CC[C@]3(C)[C@H](CC[C@@H]4[C@@]5(C)CCCNC(C)(C)[C@@H]5CC[C@]43C)[C@@H]12 — selectivity index (Human cytomegalovirus; HFF, AD169; baseline: CC50 over EC50): < 3
CC[C@H](C)[C@H](NC(=O)[C@H](CCCCNC(=N)N)NC(=O)[C@H](CC(N)=O)NC(=O)[C@H](CC(C)C)NC(=O)[C@H](Cc1ccccc1)NC(=O)[C@H](CCCCNC(=N)N)NC(=O)[C@H](CCCCNC(=N)N)NC(=O)[C@H](CC(C)C)NC(=O)[C@H](CC(C)C)NC(=O)[C@H](CCCCNC(=N)N)NC(=O)[C@H](CCCCNC(=N)N)NC(=O)[C@H](CC(C)C)NC(=O)CNC(C)=O)C(=O)N[C@@H](CCCCNC(=N)N)C(=O)N[C@@H](CCCCNC(=N)N)C(N)=O — geometric mean MIC (all bacteria tested): 4.42 µM
Cc1ccc2nc(-c3ccccc3)c(CN(C)C)n2c1 — EC50 (Trypanosoma cruzi; 3T3 host cells, Tulahuen beta-galactosidase; 6 days): > 20000 nM
Oc1cc(O)cc(Oc2c(O)cc(O)c3c2Oc2c(O)cc4oc5c(Oc6cc(O)cc(O)c6)c(O)cc(O)c5c4c2O3)c1 — viral protein synthesis (Porcine epidemic diarrhea virus; western blot, measured: spike protein; Vero; 30 µM, 18 and 24 h): inhibited
COc1cc(/C=C/c2cc(/C=C/c3ccc(O)c(OC)c3)[nH]n2)ccc1O — inhibition (Spodoptera frugiperda; cell growth or viability, MTT; Sf9; 100 µM, 72 h): 71.3%
CN(C)c1cc(CNC2CCCC2)c(O)c2c1C[C@H]1C[C@H]3[C@H](N(C)C)C(O)=C(C(N)=O)C(=O)[C@@]3(O)C(O)=C1C2=O — MIC (Streptococcus pneumoniae; microbial growth, broth dilution): < 0.06 µg/mL
Cc1ccnc(-c2cn([C@@H]3O[C@H](CO)[C@@H](O)[C@H]3O)c3ncnc(N)c23)n1 — EC50 (Trichomonas vaginalis; resorufin; G3, metronidazole-sensitive; 24 h + 2 h, 2% O2): 2800 ± 478 nM
CC(=O)Nc1cccc(Cn2nc(C)c3c(C)n(-c4ccccc4)nc3c2=O)c1 — selectivity index (Zika virus; Vero, MR766; baseline: CC50 over EC50): 1.8
CCC1(C)CCN(Cc2cc(N(C)C)c3c(c2O)C(=O)C2=C(O)[C@]4(O)C(=O)C(C(N)=O)=C(O)[C@@H](N(C)C)[C@@H]4C[C@@H]2C3)CC1 — MIC (Streptococcus pneumoniae; ATCC 700905, Tet M ribosome protection): < 0.06 µg/mL
CC[C@@H](C)[C@@H](NC(=O)[C@@H](C)N)C(=O)N[C@H](CCCCN)C(=O)N[C@@H](C(=O)N[C@H](CCCNC(=N)N)C(=O)N[C@H](CCCCN)C(=O)N[C@H](CC(C)C)C(=O)N[C@H](Cc1ccccc1)C(=O)N[C@H](CCCCN)C(=O)N[C@H](CCCCN)C(=O)N[C@H](CC(C)C)C(=O)N[C@H](CC(C)C)C(=O)N[C@H](CCCNC(=N)N)C(N)=O)[C@H](C)CC — MIC of antibiotic (Escherichia coli; broth microdilution checkerboard, measured: levofloxacin; ATCC 25922, LB medium; concentration not given): 3 ng/mL
C[C@@H](c1ccn(Cc2ccc(F)c(F)c2)n1)[C@](O)(Cn1cnnn1)c1ccc(F)cc1F — MIC (Candida tropicalis; growth, broth microdilution; 2718; 24 h, 30 °C, ≥50% inhibition): < 0.008 µg/mL
CCCCCc1ccc2c(c1O)C(c1ccc(OC)c(OC)c1)OC2=O (stereo not drawn) — IC50 (Naegleria fowleri; parasite growth, resazurin; ATCC30808; 48 h): 19.9 µM
CN(C)c1cc(CN2CCOCC2)c(O)c2c1C[C@H]1C[C@H]3[C@H](N(C)C)C(O)=C(C(N)=O)C(=O)[C@@]3(O)C(O)=C1C2=O — MIC (Streptococcus pneumoniae; ATCC 700905, Tet M ribosome protection): 0.25 µg/mL (≈ 0.449 µM)
COC1C=COC2(C)Oc3c(C)c(O)c4c(c3C2=O)C2=NC3(CCN(CC(C)C)CC3)NC2=C(NC(=O)C(C)=CC=CC(C)C(O)C(C)C(O)C(C)C(OC(=O)Nc2cscn2)C1C)C4=O (stereo not drawn) — IC50 (Mycobacteroides abscessus; ATCC 19977; 1:1 CAMHB:human serum): 0.07 µM
